Measured values collected from several papers.
Parts stem from different laboratories: compare values within a part only. Positions count from the first letter of the parent shown.
Sequence of UniProt P42681 (whole entry, looked up): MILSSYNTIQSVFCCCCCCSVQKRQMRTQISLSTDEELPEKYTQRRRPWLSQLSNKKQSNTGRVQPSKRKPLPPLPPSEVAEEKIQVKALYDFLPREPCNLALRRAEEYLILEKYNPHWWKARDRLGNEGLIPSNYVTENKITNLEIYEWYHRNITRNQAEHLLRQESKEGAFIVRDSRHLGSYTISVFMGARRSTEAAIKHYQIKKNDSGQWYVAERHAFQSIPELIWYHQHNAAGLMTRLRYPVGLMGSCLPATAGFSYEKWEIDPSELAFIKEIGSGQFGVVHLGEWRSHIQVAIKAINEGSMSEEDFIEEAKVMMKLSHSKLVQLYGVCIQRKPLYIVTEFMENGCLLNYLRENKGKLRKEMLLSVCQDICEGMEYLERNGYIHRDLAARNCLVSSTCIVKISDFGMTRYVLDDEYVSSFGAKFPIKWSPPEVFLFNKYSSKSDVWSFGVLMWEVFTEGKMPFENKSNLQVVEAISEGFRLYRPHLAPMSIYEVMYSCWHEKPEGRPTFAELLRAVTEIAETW
Sequence of UniProt P51956 (whole entry, looked up): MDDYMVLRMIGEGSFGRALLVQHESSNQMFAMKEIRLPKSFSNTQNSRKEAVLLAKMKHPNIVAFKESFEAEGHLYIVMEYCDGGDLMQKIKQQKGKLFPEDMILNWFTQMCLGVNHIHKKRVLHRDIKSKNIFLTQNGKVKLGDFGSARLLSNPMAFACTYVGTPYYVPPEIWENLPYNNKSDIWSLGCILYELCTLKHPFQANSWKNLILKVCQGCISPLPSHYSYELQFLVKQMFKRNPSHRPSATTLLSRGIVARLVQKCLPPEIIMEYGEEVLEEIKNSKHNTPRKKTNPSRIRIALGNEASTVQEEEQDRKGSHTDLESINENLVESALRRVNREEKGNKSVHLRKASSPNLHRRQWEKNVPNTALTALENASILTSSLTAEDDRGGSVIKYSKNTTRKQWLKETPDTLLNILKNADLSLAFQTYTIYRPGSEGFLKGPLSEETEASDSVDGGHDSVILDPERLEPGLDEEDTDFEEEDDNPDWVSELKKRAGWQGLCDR
Sequence of UniProt O75676 (whole entry, looked up): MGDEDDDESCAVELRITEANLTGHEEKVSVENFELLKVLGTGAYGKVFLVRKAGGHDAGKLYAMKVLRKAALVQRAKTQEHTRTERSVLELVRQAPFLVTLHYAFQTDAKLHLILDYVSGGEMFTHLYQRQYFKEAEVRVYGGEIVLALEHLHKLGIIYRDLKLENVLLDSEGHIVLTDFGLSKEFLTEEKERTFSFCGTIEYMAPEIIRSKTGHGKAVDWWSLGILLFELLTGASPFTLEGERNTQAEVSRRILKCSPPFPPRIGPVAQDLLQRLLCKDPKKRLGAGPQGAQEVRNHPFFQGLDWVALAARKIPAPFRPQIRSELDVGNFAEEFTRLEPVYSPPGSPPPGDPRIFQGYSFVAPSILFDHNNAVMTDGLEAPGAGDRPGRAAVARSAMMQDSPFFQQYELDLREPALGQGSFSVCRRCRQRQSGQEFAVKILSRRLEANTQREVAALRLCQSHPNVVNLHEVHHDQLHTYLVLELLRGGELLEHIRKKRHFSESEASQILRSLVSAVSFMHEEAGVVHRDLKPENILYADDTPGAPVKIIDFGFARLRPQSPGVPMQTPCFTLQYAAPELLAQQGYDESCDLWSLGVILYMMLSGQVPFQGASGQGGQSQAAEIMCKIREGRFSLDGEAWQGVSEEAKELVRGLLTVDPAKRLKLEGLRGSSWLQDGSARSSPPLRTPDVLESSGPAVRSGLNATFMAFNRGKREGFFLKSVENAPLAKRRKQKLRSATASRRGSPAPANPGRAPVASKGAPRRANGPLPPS
Sequence of UniProt Q8N4C8 (whole entry, looked up): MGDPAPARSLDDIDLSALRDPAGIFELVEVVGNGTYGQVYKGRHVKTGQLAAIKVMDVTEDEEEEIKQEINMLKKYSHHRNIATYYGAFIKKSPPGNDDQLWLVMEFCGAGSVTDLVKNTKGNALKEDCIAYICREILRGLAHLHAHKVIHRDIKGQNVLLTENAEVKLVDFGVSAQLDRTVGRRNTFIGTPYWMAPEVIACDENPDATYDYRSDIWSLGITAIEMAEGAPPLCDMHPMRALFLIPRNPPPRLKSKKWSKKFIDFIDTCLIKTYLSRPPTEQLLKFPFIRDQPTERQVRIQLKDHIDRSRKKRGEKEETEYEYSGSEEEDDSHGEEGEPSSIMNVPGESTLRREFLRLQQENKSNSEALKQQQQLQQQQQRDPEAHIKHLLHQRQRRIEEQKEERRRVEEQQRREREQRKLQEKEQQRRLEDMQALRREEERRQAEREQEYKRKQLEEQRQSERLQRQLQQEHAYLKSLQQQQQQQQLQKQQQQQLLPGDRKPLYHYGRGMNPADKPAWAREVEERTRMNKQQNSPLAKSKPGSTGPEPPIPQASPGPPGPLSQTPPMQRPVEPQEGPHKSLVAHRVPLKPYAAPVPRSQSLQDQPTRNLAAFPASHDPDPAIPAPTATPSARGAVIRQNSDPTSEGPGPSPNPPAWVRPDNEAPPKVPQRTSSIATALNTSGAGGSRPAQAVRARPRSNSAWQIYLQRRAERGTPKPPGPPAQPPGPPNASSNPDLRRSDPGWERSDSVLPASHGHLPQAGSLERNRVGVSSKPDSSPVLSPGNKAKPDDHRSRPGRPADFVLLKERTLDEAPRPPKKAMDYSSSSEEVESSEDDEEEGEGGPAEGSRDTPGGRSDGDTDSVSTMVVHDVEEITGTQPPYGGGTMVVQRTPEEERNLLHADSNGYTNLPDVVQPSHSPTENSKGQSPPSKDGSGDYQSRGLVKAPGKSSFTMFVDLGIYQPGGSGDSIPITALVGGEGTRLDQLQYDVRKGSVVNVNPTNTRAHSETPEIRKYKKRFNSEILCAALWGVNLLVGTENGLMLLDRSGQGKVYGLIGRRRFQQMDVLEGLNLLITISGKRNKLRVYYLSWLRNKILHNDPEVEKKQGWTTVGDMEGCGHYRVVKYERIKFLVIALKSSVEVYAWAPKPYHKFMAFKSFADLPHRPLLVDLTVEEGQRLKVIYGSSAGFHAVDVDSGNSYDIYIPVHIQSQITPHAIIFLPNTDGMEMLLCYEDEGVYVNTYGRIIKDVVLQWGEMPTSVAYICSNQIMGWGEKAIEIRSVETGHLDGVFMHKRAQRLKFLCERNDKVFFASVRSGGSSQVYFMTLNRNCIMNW
Sequence of UniProt Q15759 (whole entry, looked up): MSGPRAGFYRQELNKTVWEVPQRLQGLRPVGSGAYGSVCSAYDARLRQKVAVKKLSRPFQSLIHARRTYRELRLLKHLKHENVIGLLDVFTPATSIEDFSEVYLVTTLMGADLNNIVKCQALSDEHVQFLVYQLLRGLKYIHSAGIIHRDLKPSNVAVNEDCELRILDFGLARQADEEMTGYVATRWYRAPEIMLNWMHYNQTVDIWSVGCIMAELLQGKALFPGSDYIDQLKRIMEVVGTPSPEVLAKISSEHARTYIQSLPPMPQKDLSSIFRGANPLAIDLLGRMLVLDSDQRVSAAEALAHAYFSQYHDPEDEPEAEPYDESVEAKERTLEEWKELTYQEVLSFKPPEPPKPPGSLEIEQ
Sequence of UniProt Q16832 (whole entry, looked up): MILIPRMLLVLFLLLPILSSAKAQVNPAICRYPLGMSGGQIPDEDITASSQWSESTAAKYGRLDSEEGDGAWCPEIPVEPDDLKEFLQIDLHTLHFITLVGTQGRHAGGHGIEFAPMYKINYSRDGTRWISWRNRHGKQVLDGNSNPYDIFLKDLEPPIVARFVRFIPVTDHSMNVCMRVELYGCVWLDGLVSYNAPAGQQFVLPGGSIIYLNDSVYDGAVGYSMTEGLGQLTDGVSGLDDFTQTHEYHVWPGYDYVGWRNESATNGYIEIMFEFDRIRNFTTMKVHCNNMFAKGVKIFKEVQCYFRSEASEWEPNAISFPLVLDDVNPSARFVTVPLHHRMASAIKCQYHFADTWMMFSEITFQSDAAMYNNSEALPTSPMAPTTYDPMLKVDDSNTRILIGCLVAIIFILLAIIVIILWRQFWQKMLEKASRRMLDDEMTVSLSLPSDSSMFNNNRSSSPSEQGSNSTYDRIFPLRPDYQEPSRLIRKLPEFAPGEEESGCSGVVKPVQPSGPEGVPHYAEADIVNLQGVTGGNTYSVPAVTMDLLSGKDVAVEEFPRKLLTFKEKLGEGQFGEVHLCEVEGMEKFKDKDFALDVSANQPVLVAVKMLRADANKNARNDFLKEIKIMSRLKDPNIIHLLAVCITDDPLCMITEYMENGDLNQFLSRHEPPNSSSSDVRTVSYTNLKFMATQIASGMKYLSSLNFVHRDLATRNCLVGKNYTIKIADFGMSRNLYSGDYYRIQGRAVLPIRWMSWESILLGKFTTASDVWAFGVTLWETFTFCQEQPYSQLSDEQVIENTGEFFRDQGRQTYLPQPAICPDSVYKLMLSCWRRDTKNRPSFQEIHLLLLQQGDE
Sequence of UniProt P0C1S8 (whole entry, looked up): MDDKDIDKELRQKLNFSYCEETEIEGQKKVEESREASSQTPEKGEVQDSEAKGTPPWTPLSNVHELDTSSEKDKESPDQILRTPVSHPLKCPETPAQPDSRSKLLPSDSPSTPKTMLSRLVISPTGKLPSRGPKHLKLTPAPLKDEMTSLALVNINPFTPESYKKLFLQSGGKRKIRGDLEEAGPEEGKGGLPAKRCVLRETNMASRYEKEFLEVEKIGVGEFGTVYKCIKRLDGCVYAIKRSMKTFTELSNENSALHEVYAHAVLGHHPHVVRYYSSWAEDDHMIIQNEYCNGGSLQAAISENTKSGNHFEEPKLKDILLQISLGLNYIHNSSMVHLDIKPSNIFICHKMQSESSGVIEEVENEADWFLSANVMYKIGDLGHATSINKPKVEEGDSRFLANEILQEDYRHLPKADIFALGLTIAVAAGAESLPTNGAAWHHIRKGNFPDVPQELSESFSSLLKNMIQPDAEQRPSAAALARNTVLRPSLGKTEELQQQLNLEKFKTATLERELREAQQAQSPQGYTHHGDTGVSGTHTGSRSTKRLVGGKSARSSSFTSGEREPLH

Block 1 — read-out: enzyme activity; mode: inhibitor; concentration: 0.5 µM; baseline: control
Compound: Cc1ccc(NC(=O)c2ccc(CN3CCN(C)CC3)cc2)cc1Nc1nccc(-c2cccnc2)n1
target | remaining activity [%]
Tyrosine-protein kinase TXK (TXK, Homo sapiens, UniProt P42681) | 108
Serine/threonine-protein kinase PLK3 (PLK3, Homo sapiens, UniProt Q9H4B4) | 100
cGMP-dependent protein kinase 2 (PRKG2, Homo sapiens, UniProt Q13237) | 95.7
Discoidin domain-containing receptor 2 (DDR2, Homo sapiens, UniProt Q16832) | 27.1
Misshapen-like kinase 1 (MINK1, Homo sapiens, UniProt Q8N4C8) | 98.5
Calcium/calmodulin-dependent protein kinase type IV (CAMK4, Homo sapiens, UniProt Q16566) | 102
Hepatocyte growth factor receptor (MET, Homo sapiens, UniProt P08581) | 110
Serine/threonine-protein kinase DCLK2 (DCLK2, Homo sapiens, UniProt Q8N568) | 102
Rho-associated protein kinase 1 (ROCK1, Homo sapiens, UniProt Q13464) | 100
Mitogen-activated protein kinase 11 (MAPK11, Homo sapiens, UniProt Q15759) | 98
Dual specificity mitogen-activated protein kinase kinase 1 (MAP2K1, Homo sapiens, UniProt Q02750) | 104
Ribosomal protein S6 kinase alpha-4 (RPS6KA4, Homo sapiens, UniProt O75676) | 103
Serine/threonine-protein kinase Nek3 (NEK3, Homo sapiens, UniProt P51956) | 97

Block 2 — target: CEP164, C-terminal peptide (human); technique: DHFR complementation, deep sequencing; medium: yeast; baseline: wild type; reading: higher = weaker binding
Notes: single substitutions, model-inferred values
Parent: PDZK1, PDZ domain 2 (human); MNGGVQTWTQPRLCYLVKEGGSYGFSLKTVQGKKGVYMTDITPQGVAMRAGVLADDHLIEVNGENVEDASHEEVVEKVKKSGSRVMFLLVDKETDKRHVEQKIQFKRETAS; partner HNRVKVYRF
Variant | binding free energy change
T94E | 0.0892 kcal/mol
E100S | -0.117 kcal/mol
G4R | -0.0376 kcal/mol
M48G | 0.145 kcal/mol
M38Y | 1.39 kcal/mol
M38T | 0.421 kcal/mol
N62W | 0.578 kcal/mol
V74N | 1.13 kcal/mol

Block 3 — read-out: cell-free assay; technique: competition with immobilised ligand; concentration: 0.1 µM
Structure (SMILES): Nc1c(C(=O)NCc2ccc(C(=O)NCCCC3CCCCC3)cc2)cnn1-c1ccccc1
target | remaining binding [%]
Vascular endothelial growth factor receptor 1 (FLT1, Homo sapiens, UniProt P17948) | 100
Wee1-like protein kinase 2 (WEE2, Homo sapiens, UniProt P0C1S8) | 100
Tyrosine-protein kinase TXK (TXK, Homo sapiens, UniProt P42681) | 83
Receptor-interacting serine/threonine-protein kinase 2 (RIPK2, Homo sapiens, UniProt O43353) | 96
Mast/stem cell growth factor receptor Kit (KIT, Homo sapiens, UniProt P10721, V559D) | 45
TRAF2 and NCK-interacting protein kinase (TNIK, Homo sapiens, UniProt Q9UKE5) | 100

Block 4 — technique: RNA Bind-n-Seq; molecule type: RNA; medium: in vitro; concentration: 365 nM; baseline: no-protein control; reading: higher = stronger binding
Target: RNA binding protein fox-1 homolog 2, RRM domain, GST-SBP tag (RBFOX2, Homo sapiens, UniProt O43251-10, residues 100-194)
Notes: natural RNA segment, single round, ends assumed
Constant ends, left off below: GGGAGUUCUACAGUCCGACGAUC … UGGAAUUCUCGGGUGCCAA
Residues (chain): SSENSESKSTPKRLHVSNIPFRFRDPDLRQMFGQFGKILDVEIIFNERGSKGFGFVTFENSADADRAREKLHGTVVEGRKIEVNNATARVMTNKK
Strand | RBNS enrichment (R)
UCAAGCUUCAUGUAGGGUCAGGGGUGCCUAGGGAUGGCCCCAUCUGCUAUGUAAAUUAGGACUUGCCUGCCAGGUCUCAGCUGUCAGUGGAGAGUAGGUUUCAGGAAACC | 0.637
ACCCAAGUCUUAGUUGCUACAAGAAAAUCCCCUGGAAGUACUGGGGGCCAGGUUCCCCAGACAGCAGGAAUUGCCCCUGUUCAGAGCAGCCGGAGUUUGCUGGACCACAA | 0.379
CUUGUGGCUACAUCAUCCCUGGCUGUGGAUAGUGCUUUUGUGUAGCAAAUGCUCCCUCCUUAAGGUUAUAGGGCUCCCUGAGUUUGGGAGUGUGGAAGUACUACUUAACU | 0.624
AGGGCAGACAGGAGUCCAGGCUCCAAGCUAUCCCCUUGCCUCUUUCUGCCCCCAGCCCCACCCCCCAACCAGUCUGCCUGUUGCCCCACUCAGCCCUGAGUGUUAGGCAC | 0.33
UGCUGCCCUUGCCUGUUCCCCAUUAGCACAGGAGUAGCAGCAGCAGGACAGGCAAGAGCCUCACAAGUGGGACUCUGGGCCUCUGACCAGCUGUGCGGCAUGGGCUAAGU | 0.397
UUCAUGAACAUCUUUGAUCCUUCCAUUUCAUUUAUUCAUCCAUCCAUUCAACAAGUAUUUGCUAAACACUAACUUAAGCUAAUGCUAGGGUAGUGACUGAGAUGUAAAAA | 0.261
AAAGAGAAAGCCUGGAAGGAAAUGUUCCAACUCCUUAGAAGGGUCGUGCAAGCUGCUGUGGGAGGGUAAGCACCCCUCCCAGCACAGAAACCUUUCCUUUGAAUCAAUAA | 0.44
CAGAAACAAGCCUUGCCUGUGCAUCCUGGAGAGUUAGGUCCUUCAGAAGGCCAGAGCUGGGACAAGCCUUGACCCGUUCUGCAGCCCUUAGAGCCUUCACACGUGAGCAC | 12.3
